Measurements of several laboratories.
Parts stem from different laboratories: compare values within a part only. Positions count from the first letter of the parent shown.

Study 1
Target: PABPC1L2, full length, GST fusion (mouse, UniProt A0ABA7IW68)
Method: RNAcompete
Form: RNA
Matrix: in vitro
Concentration: 20 nM
Notes: 7-mer, probes averaged, single round
Reference: mean of 7-mers
Direction: higher = stronger binding
Residues (chain): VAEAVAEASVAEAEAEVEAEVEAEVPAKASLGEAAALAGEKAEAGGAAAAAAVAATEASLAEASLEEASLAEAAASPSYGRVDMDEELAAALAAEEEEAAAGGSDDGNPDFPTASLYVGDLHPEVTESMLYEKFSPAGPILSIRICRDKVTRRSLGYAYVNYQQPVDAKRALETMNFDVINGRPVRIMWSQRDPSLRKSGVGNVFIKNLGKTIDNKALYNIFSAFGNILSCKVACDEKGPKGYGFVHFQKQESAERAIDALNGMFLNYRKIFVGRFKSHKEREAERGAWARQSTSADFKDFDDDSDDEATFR
| Strand | 7-mer Z-score |
| --- | --- |
| CAACUAU | -0.0192 |
| AAACUUG | 1 |
| CUCUAUA | -0.0808 |
| UCAGGUG | -0.0989 |
| AUCAGAU | 0.0442 |

Study 2
Target: Ras GTPase-activating protein-binding protein 1, RRM domain (G3BP1, Homo sapiens, UniProt Q13283)
Sequence of UniProt Q13283 (whole entry, looked up): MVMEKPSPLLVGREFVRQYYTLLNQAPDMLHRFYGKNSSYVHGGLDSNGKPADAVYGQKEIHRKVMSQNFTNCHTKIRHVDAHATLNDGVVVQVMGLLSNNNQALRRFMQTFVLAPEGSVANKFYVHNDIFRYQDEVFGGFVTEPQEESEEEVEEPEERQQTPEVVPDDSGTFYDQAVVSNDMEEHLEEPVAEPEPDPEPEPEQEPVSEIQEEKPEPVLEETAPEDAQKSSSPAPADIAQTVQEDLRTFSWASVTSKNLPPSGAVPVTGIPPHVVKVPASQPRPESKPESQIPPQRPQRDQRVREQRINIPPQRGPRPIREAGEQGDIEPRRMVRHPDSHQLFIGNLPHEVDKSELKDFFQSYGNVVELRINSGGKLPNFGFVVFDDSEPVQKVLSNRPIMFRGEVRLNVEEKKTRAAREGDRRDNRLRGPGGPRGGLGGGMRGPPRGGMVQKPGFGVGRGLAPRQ
Method: RNA Bind-n-Seq
Form: RNA
Matrix: in vitro
Concentration: 1 µM
Notes: whole 134-nt RNA, ends assumed
Added: 150 mM KCl
Reference: input library
Direction: higher = stronger binding
Shared flanks, not repeated: GGGAGUUCUACAGUCCGACGAUC … UGGAAUUCUCGGGUGUCAAGG
| Strand | log2 enrichment |
| --- | --- |
| UCCUGUGCUACACAUCGUAUGUACCGAAUCGGGAAAAAAAGGGUUUUUUUGGGAAAGGGAAAGUAUUAUGUUACGCCGUUCGGAUCUGCA | -0.0115 |
| AAGUCCUGUGCUACACAUCGUAUGUACCGAAUCGGAAAAAGGGAAAAAGGAAAAAGGAAAGUAUUAUGUUACGCCGUUCGGAUCUGCACU | -0.000897 |
| CUCAAGUCCUGUGCUACACAUCGUAUGUACCGAAUCGGCCGGGGCCGGGCCGGGAAAGUAUUAUGUUACGCCGUUCGGAUCUGCACUUCC | -0.68 |
| GCAGGAAGUAAAAACAAAUGGAAAUGCUUCGGAUAGUGUCAGGGGUGGGGGUUGCUAAGGAAAGGGUGGGAUGGGAGUGGGUAAAGAGUU | 0.849 |
| ACCAUGCAGGUGGGCAUCUUUGGGAAGUGGGGCAAGGGGGGGAUAGGCAGGGGGGUAACACUUUGGGAACAGGUGGUCCCAGGUCGUUUC | 0.882 |
| UCAAGUCCUGUGCUACACAUCGUAUGUACCGAAUCGGGUUGGGUUGGGGUUGGGGAAAGUAUUAUGUUACGCCGUUCGGAUCUGCACUUC | 1.09 |

Study 3
Target: ABI1, truncated, D143A, DHFR fusion (Arabidopsis thaliana, UniProt P49597)
Method: DHFR PCA, dose-response
Matrix: yeast
Notes: Hill fit, mean, not affinity
Added: (+)-ABA, dose series
Direction: lower = more sensitive
Parent: PYL1, truncated, DHFR fusion (Arabidopsis thaliana, UniProt Q8VZS8); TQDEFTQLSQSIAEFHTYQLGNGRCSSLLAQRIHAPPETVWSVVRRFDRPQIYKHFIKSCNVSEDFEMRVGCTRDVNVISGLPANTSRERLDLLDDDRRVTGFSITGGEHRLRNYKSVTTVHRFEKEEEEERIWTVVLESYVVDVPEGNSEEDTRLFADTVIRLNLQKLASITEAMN
| Substitution | ABA EC50 [µM] |
| --- | --- |
| E14R | 8.29 |
| M68A | 9.45 |
| L156Q | 6.82 |
| S11Q | 1.21 |
| H34G | 3.99 |

Other studies, line by line
| Molecule | target | test | system | conditions | how to read | endpoint | value |
| --- | --- | --- | --- | --- | --- | --- | --- |
| PhoQ, residues 284 288 289 292 302 303 SSTLLI | PhoP, residues 12 14 15 18 19 SYFRT (Escherichia coli, UniProt P23836) | Sort-seq, refers to: YFP reporter | E. coli | PhoQ-PhoP variant library, added: 10 µM Mg2+ | reference: high Mg2+ state, higher = stronger signaling | fold induction | 0.88 |

Some of these lines once more (study 2):
| Strand | log2 enrichment |
| --- | --- |
| ACCAUGCAGGUGGGCAUCUUUGGGAAGUGGGGCAAGGGGGGGAUAGGCAGGGGGGUAACACUUUGGGAACAGGUGGUCCCAGGUCGUUUC | 0.882 |
| UCAAGUCCUGUGCUACACAUCGUAUGUACCGAAUCGGGUUGGGUUGGGGUUGGGGAAAGUAUUAUGUUACGCCGUUCGGAUCUGCACUUC | 1.09 |
